Assay results collected from several papers.
± gives the spread as reported.
CHRM3: Muscarinic acetylcholine receptor M3 (CHRM3, Homo sapiens, UniProt P20309)
Sequence of UniProt P20309 (whole entry, looked up): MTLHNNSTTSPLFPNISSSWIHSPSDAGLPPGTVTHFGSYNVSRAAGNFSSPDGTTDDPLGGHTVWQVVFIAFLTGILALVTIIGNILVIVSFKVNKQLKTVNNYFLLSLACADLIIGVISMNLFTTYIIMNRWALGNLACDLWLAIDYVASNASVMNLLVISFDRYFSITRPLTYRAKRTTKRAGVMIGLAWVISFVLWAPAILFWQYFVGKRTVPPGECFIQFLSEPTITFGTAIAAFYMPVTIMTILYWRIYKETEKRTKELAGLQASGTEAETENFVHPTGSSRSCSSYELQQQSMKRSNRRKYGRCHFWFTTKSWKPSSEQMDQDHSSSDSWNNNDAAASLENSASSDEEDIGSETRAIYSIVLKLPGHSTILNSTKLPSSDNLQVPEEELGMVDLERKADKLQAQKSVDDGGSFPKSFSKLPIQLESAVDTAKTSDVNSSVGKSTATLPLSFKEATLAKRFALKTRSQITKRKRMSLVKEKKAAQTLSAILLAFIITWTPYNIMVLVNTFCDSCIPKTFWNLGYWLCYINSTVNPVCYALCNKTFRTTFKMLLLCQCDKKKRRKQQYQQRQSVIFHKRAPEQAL
4'-phosphopantetheinyl transferase PptT: 4'-phosphopantetheinyl transferase PptT (Mycobacterium tuberculosis, UniProt O33336)
Sequence of UniProt O33336 (whole entry, looked up): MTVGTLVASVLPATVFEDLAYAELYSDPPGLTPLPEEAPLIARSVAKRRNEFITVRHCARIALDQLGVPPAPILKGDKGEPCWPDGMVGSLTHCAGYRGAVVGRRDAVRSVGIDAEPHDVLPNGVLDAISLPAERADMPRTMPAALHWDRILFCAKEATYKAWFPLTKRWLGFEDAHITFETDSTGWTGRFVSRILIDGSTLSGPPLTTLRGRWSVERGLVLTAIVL
Slc6a4: Sodium-dependent serotonin transporter (Slc6a4, Rattus norvegicus, UniProt P31652)
Sequence of UniProt Q8NCC3 (whole entry, looked up): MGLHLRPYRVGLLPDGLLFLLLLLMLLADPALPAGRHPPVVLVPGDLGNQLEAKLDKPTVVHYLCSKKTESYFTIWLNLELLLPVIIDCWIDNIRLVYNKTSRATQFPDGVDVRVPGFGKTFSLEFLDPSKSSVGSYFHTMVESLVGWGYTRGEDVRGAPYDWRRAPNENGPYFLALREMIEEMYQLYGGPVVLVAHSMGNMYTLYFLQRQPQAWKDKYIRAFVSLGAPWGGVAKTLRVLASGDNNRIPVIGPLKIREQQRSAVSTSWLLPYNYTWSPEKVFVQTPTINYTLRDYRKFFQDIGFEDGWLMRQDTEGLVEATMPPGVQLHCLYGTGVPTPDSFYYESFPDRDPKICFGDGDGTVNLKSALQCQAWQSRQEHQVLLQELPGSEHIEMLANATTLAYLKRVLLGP
Sequence of UniProt P9WK45 (whole entry, looked up): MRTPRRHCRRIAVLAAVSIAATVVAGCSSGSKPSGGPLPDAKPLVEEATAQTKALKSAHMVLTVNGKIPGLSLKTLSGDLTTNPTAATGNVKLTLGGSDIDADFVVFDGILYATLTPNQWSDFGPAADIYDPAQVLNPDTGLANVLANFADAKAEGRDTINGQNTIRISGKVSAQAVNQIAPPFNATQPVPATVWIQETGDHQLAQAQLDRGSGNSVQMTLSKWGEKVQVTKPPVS
Sequence of UniProt Q92800 (whole entry, looked up): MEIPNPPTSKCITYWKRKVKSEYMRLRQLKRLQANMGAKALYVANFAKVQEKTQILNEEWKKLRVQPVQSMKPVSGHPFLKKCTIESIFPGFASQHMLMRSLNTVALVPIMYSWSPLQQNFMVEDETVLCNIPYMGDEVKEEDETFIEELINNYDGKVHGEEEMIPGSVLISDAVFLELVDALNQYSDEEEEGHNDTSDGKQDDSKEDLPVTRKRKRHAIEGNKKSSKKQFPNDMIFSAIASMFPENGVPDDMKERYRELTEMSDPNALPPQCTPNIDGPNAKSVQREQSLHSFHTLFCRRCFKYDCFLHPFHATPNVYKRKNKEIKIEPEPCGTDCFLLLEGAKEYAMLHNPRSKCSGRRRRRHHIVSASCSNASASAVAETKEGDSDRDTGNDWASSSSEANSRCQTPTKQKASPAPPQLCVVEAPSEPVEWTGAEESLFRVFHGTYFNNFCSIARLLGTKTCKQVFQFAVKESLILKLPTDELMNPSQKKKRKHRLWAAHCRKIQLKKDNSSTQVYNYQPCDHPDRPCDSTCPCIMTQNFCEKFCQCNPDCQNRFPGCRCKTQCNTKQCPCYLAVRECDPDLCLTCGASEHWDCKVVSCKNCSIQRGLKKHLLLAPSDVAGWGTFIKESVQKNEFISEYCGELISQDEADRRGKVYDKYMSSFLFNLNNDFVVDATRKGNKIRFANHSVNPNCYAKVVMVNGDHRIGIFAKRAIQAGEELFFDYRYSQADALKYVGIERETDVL
Sequence of UniProt Q8NET8 (whole entry, unmodified, looked up): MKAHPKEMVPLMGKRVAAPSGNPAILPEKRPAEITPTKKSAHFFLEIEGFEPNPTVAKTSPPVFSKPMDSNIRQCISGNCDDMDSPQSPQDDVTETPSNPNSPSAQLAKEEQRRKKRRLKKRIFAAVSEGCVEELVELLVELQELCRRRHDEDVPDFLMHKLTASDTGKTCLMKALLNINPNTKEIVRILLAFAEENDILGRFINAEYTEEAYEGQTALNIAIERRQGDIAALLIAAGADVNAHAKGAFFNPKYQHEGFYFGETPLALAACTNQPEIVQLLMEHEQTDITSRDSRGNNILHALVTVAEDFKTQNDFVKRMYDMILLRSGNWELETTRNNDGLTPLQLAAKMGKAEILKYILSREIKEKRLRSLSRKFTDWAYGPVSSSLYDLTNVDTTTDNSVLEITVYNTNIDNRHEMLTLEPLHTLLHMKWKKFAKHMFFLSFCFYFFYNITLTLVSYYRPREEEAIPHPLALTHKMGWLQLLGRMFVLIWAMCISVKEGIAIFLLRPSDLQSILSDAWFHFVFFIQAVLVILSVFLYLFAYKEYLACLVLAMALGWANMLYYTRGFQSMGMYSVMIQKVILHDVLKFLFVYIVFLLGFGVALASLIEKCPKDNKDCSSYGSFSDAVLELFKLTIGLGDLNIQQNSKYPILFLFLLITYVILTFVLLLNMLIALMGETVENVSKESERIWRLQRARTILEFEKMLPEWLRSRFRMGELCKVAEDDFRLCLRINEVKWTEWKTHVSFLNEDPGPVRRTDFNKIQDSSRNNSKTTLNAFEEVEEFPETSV
Sequence of UniProt Q12913 (whole entry, looked up): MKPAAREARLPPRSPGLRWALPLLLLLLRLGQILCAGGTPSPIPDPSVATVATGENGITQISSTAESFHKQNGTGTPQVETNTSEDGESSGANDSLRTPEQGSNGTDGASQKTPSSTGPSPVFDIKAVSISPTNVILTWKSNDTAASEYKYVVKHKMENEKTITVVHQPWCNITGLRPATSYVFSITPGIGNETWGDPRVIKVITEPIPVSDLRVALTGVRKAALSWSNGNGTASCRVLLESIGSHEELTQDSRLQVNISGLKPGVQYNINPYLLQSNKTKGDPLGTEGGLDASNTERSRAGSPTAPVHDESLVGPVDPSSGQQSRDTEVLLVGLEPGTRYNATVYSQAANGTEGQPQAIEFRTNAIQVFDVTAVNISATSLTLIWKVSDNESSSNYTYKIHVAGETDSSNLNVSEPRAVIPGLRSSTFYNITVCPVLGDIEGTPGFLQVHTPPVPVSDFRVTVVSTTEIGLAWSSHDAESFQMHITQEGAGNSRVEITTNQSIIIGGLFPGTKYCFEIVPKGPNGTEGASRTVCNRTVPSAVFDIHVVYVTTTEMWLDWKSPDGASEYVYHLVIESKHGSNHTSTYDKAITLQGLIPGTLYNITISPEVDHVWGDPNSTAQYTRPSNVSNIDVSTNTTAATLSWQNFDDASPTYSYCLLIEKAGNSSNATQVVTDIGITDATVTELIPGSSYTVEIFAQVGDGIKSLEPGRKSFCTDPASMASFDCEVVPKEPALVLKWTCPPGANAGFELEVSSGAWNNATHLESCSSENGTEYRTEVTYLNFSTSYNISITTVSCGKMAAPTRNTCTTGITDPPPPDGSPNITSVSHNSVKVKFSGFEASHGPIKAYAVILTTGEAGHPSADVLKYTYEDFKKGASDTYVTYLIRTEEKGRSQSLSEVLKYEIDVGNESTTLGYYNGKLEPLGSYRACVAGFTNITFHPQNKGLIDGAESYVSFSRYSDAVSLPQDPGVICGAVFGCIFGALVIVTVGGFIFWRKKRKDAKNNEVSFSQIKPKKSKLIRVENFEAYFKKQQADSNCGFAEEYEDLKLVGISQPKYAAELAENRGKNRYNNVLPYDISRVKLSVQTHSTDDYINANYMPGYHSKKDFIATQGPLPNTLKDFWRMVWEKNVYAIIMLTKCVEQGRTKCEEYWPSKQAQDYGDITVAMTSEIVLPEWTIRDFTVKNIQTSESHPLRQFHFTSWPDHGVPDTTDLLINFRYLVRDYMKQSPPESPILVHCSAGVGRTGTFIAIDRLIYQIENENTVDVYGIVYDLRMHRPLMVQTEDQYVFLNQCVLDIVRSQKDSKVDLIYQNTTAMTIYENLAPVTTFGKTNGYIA
Sequence of UniProt P9WQN9 (whole entry, looked up): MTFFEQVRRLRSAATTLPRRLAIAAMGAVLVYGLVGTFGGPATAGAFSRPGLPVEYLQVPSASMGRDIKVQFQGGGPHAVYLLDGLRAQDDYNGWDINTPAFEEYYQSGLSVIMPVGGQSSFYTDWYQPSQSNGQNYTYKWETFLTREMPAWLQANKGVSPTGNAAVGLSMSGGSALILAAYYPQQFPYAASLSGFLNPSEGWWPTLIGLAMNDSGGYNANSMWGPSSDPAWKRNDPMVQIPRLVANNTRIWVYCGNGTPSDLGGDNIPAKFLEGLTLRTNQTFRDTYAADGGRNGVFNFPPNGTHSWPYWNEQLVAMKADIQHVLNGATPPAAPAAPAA

Nc1nc(O)c2ncn([C@@H]3O[C@H](COP(=O)(O)OP(=O)(O)C[P+]([O-])(O)O)[C@@H](O)[C@H]3O)c2n1
Kd (uncharacterized protein (Vibrio cholerae, UniProt A0A0X1KYD0)): 47.1 µM

Clc1cc(Cl)cc(N2CCNCC2)c1
EC50 (CHRM3; ERK1/2 phosphorylation, agonist; CHO cells): > 20 µM

O=C(c1ccc(Cl)cc1)N1CCN2C(=O)N(OC(=O)N3CCOc4ccccc43)C(=O)C2C1 (stereo not shown)
median ratio (PLA2G15 (Homo sapiens, UniProt Q8NCC3); enzyme activity, inhibitor, MS-based ABPP; SW-620 conditioned medium; 10 µM, 1 h, 37 °C; reference: compound over DMSO, lower = stronger inhibition): 1.09

CCCCCCCCCCCC(CC1OC(=O)C1C(C)C)OC(=O)C(CC(C)C)NC(=O)OCc1ccccc1 (stereo not shown)
EC50 (fbpC (Mycobacterium tuberculosis, UniProt P9WQN9); enzyme activity, inhibitor, 4-MUH hydrolysis fluorescence; pH 7.5, 4 mM trehalose, with: 50 µM 4-methylumbelliferyl heptanoate): 66 ± 8 µM

CCCCCCC(CCCCCCCCCCC(=O)O)N(C)c1ccc([N+](=O)[O-])c2nonc12 (stereo not shown)
Kd (lprG (Mycobacterium tuberculosis, UniProt P9WK45); binding): 20 µM

CCNC(=N)NC(=O)Nc1cc(C(F)(F)F)cc(C(F)(F)F)c1
IC50 (4'-phosphopantetheinyl transferase PptT; inhibitor): > 100 µM

COC(=O)/C=C/C(=O)N[C@@H]1CC[C@@]2(O)[C@H]3Cc4ccc(O)c5c4[C@@]2(CCN3CC2CC2)[C@H]1O5
Kd (Oprm1 (Rattus norvegicus, UniProt P33535, K303E); reversible binding, radioligand saturation binding; N2a membranes; with: [3H]compound): 0.00998 ± 0.00364 µM

C[C@H]1CN(c2n[nH]c3nc(N[C@H]4CC[C@H](NS(=O)(=O)CCC(F)(F)F)CC4)ncc23)CCO1
relative abundance (WNK1 (Homo sapiens, UniProt Q9H4A3); inhibitor, Kinobeads competition profiling; 0.8 µM; reference: vehicle): 1.11

CC[C@H](C)[C@H](NC(=O)[C@H](Cc1ccccc1)NC(=O)[C@H](CCC(=O)O)NC(=O)[C@H](CCCNC(=N)N)NC(=O)[C@H](C)NC(=O)[C@H](C)NC(=O)[C@H](CCC(N)=O)NC(=O)[C@H](CCC(=O)O)NC(=O)[C@H](CCC(=O)O)NC(=O)[C@H](CC(C)C)NC(=O)[C@H](Cc1ccc(O)cc1)NC(=O)[C@H](CO)NC(=O)[C@H](CO)NC(=O)[C@@H](NC(=O)[C@H](CC(=O)O)NC(=O)[C@H](CO)NC(=O)[C@@H](NC(=O)[C@H](Cc1ccccc1)NC(=O)[C@@H](NC(=O)CNC(=O)[C@H](CCC(=O)O)NC(=O)[C@H](C)NC(=O)CCc1c[nH]cn1)[C@@H](C)O)[C@@H](C)O)C(C)C)C(=O)N[C@@H](C)C(=O)N[C@@H](Cc1c[nH]c2ccccc12)C(=O)N[C@@H](CC(C)C)C(=O)N[C@H](C(=O)N[C@@H](CCCNC(=N)N)C(=O)NCC(=O)N[C@@H](CCCNC(=N)N)C(=O)N[C@@H](CCCCNC(=O)COCCOCCNC(=O)COCCOCCNC(=O)CC[C@H](NC(=O)CCCCCCCCCCCCCCCCC(=O)O)C(=O)O)C(=O)NCC(=O)NCC(=O)N[C@@H](CO)C(=O)N[C@@H](CCCCNc1c(NCCCCCN(O)C(=O)CCC(=O)NCCCCCN(O)C(=O)CCC(=O)NCCCCCN(O)C(C)=O)c(=O)c1=O)C(=O)O)C(C)C [zirconium-89 labelled]
tissue uptake (gamma counting; rat, stomach-duodenum; subcutaneous, 3 nmol/kg, 4 h): 0.18 %ID/g

CCc1cccc(CC)c1NC(=O)NC(=N)N1CCCCC1
IC50 (4'-phosphopantetheinyl transferase PptT; inhibitor): > 100 µM

C[C@@H](O)[C@@H](CO)NC(=O)[C@@H](CCCNC(=N)N)NC(=O)[C@@H]1CCCN1C(=O)[C@@H]1CSSC[C@H](NC(=O)[C@H](Cc2ccccc2)NC(=O)CN2CCN(CC(=O)O)CCN(CC(=O)O)CCN(CC(=O)O)CC2)C(=O)N[C@@H](Cc2ccc(O)cc2)C(=O)N[C@@H](Cc2ccccc2)C(=O)N[C@@H](CCC(N)=O)C(=O)N[C@@H](CC(N)=O)C(=O)N1 [gallium-68 labelled]
tissue uptake (healthy Wistar rat, blood; intravenous, 8 MBq, 60 min, individual animals): 1.01 %ID/g

CCCCC(=O)N(Cc1ccc(-c2ccccc2-c2nnn[nH]2)cc1)[C@H](C(=O)O)C(C)C
IC50 (Succinyl-CoA:glutarate CoA-transferase (SUGCT, Homo sapiens, UniProt Q9HAC7); enzyme activity, inhibitor, fluorometric coupled; pH 7.5, 100 mM HEPES-NaOH buffer): 18 µM

CC[C@H](C)[C@@H]1NC(=O)[C@@H]2CCCN2C(=O)[C@H](CC(C)C)NC(=O)[C@H](CC(C)C)NC(=O)CNC(=O)[C@@H](NC(=O)[C@@H](NC(=O)[C@H](CC(=O)O)NC(=O)CNC(=O)[C@@H](NC(=O)[C@H](C)NC(=O)CNC(=O)[C@H](CCCCN)NC(=O)[C@H](CC(C)C)NC(=O)[C@H](CC(C)C)NC(=O)[C@H](CCCCN)NC(=O)CNC(=O)[C@@H](NC(=O)[C@@H](N)CC(C)C)C(C)C)C(C)C)C(C)C)CSSC[C@@H](C(=O)O)NC1=O
log2 fold change (RNA-seq, refers to: Zc3h12d mRNA; mouse traumatic brain injury, frontal cortex and hippocampus; dose not given; reference: TBI plus compound vs TBI): -1.8

CCCC(NC)C(=O)c1ccc2c(c1)OCO2 (racemic)
EC50 (Slc6a4; substrate release, substrate; rat brain synaptosomes; with: [3H]5-HT 5 nM): 0.65 ± 0.2 µM

Clc1cccc(N2CCNCC2)c1Cl
EC50 (CHRM3; ERK1/2 phosphorylation, agonist; CHO cells): > 20 µM

COc1cc(CCC[P+](c2ccccc2)(c2ccccc2)c2ccccc2)c(OC)c2c1OCO2.[I-]
TGI (K562; SRB): > -4 log M

CCNC(=N)NC(=O)Nc1ccc(Br)cc1CC
IC50 (4'-phosphopantetheinyl transferase PptT; inhibitor): 62.5 µM

CCNC(CC)C(=O)c1ccc2c(c1)OCO2 (stereo not shown)
EC50 (Slc6a4; rat): 1.02 ± 0.26 µM

CCNC(=N)NC(=O)Nc1ccc(C(F)(F)F)cc1
IC50 (4'-phosphopantetheinyl transferase PptT; inhibitor): > 100 µM

COc1cc(Nc2ncc(F)c(Nc3ccc4c(n3)NC(=O)C(C)(C)O4)n2)cc(OC)c1OC
IC50 (PTPRJ (Homo sapiens, UniProt Q12913); DEP1): > 10 µM

CC(C)(C)c1cc(C(C)(C)CO)c(O)cc1NC(=O)c1c[nH]c2ccccc2c1=O
Ki (CHRM3): > 1.83 µM

COc1ccc(N2C(=O)N(c3c(C)cccc3Cl)Cc3cnc(Nc4ccc(C5CCN(C)CC5)cc4OC)nc32)nc1
inhibition (MAP4K3 (Homo sapiens, UniProt Q8IVH8); kinase activity; 0.5 µM): 83%

CCCc1cc(O)c2c(c1)OC(C)(C)[C@@H]1CCC(C)=C[C@@H]21
EC50 (TRPV3 (Homo sapiens, UniProt Q8NET8, L563F); calcium uptake, agonist; HEK293S; mutant L563F, site 1): > 100 µM

CCNC(=N[N+](=O)[O-])NC(=O)Nc1c(CC)cccc1CC
IC50 (4'-phosphopantetheinyl transferase PptT; inhibitor): > 100 µM

COc1cc(C)[nH]c(=O)c1CNC(=O)c1c(C)n([C@H](C)C2CCN(CC(F)(F)F)CC2)c2ccccc12
Ki (Histone-lysine N-methyltransferase EZH1, in PRC2 complex (EZH1, Homo sapiens, UniProt Q92800); enzyme activity, inhibitor; with: activator peptide): 0.031 µM

Repeated from above:
COC(=O)/C=C/C(=O)N[C@@H]1CC[C@@]2(O)[C@H]3Cc4ccc(O)c5c4[C@@]2(CCN3CC2CC2)[C@H]1O5
Kd (Oprm1 (Rattus norvegicus, UniProt P33535, K303E); reversible binding, radioligand saturation binding; N2a membranes; with: [3H]compound): 0.00998 ± 0.00364 µM

CCNC(=N)NC(=O)Nc1ccc(C(F)(F)F)cc1
IC50 (4'-phosphopantetheinyl transferase PptT; inhibitor): > 100 µM

CCNC(=N[N+](=O)[O-])NC(=O)Nc1c(CC)cccc1CC
IC50 (4'-phosphopantetheinyl transferase PptT; inhibitor): > 100 µM
